Published values collected from several papers.
Protocols differ between the studies behind these lines. Several values in a cell are separate wells, animals, samples, runs or records. Numbers after ± are the reported error. ≈ marks a conversion by molar mass, not a printed value.

SMILES = COc1ccc(C)cc1NC(=O)OC1CC2CCCC(C1)N2Cc1ccc(CC[18F])cc1 (centres unmarked); test system = mouse, bone; setting = 5 min, tumour-bearing; measurement = tracer uptake; result = 2.98 %ID/g
SMILES = CC(C)[C@H](NC(=O)CNC(=O)[C@H](CCC(N)=O)NC(=O)[C@H](C)N)C(=O)O; test system = healthy male volunteers; setting = intravenous, 15 mg/kg/h, 2 h, added: LPS 2 ng/kg; measurement = subjects with Definitely related AE; result = 0%
SMILES = CCCCCCCCCCCCCCCCCC(=O)Nc1ccn(C2OC(CO)C(O)C2(F)F)c(=O)n1 (centres unmarked); test system = mice, serum; setting = iv, 30 mg/kg gemcitabine equivalent, 24 h; measurement = ALT; result = 172 ± 22 mU/mL
SMILES = COc1cc(C(=O)NCCOCCOCCOCCNC(=O)c2ccc([18F])nc2)ccc1NC(=O)C1NC(CC(C)(C)C)C(C#N)(c2ccc(Cl)cc2F)C1c1cccc(Cl)c1F (centres unmarked); test system = athymic male mice, SJSA-1 xenograft; setting = 1 h; scale = baseline: tumour over liver; measurement = tumour-to-tissue ratio; result = 0.82 ± 0.08
SMILES = CN(C)C(CNC(=O)Nc1cc(C(F)(F)F)ccc1N1CCOCC1)c1ccncc1 (centres unmarked); test system = mouse, serum; setting = intraperitoneal, 240 mg/kg single dose; measurement = serum total CO2; result = 19 mmol/L
SMILES = CC[C@H](C)[C@H](NC(=O)[C@H](CCCCN)NC(=O)[C@H](CCCCN)NC(=O)[C@H](Cc1ccccc1)NC(=O)[C@H](CC(C)C)NC(=O)[C@H](CCCCN)NC(=O)[C@H](Cc1c[nH]c2ccccc12)NC(=O)[C@@H](CCCCN)NC(C)=O)C(=O)NCC(=O)N[C@@H](C)C(=O)N[C@H](C(=O)N[C@@H](CC(C)C)C(=O)N[C@H](CCCCN)C(=O)N[C@H](C(=O)N[C@@H](CC(C)C)C(N)=O)C(C)C)C(C)C; assay = circular dichroism; test system = PE:PG:CL liposomes; setting = 60 µM, lipid to peptide ratio 1; scale = baseline: reference peptide; measurement = helical content; result = ~84%
SMILES = CC(CCC(=O)NCC(=O)O)C1CCC2C3CCC4CC(OC5OC(C(=O)O)C(O)C(O)C5O)CCC4(C)C3CC(O)C12C (centres unmarked); test system = human, SLCO1B1 *15/*35, plasma; setting = geometric mean, sex-adjusted; measurement = plasma concentration; result = 0.115 µg/mL
SMILES = CC(C)N1CCCCC1C(=O)NC(Cc1ccc(-c2ccccc2)cc1)B(O)O (centres unmarked); test system = Pf3D7 0087/N9, NODscidIL2Rγnull mice infected with P. falciparum; setting = oral, dose not given; measurement = tolerability; result = not toxic
SMILES = CN[C@](C)(C[18F])C(=O)O; test system = SCID mouse A549 xenograft, brain; setting = 60 min, post injection; measurement = tissue uptake; result = 0.2 ± 0.1 %ID/g
SMILES = CC(C)[C@H](NC(=O)CNC(=O)[C@H](CCC(N)=O)NC(=O)[C@H](C)N)C(=O)O; test system = human; setting = 30 mg/kg single dose; measurement = subjects with any adverse event; result = 16.7%
SMILES = N=C(N)NCc1ccc(C(=O)NCCCC[C@H](NC(=O)N[C@@H](CCC(=O)O)C(=O)O)C(=O)O)cc1[131I]; test system = SCID mouse, PC-3 xenografts, stomach; setting = 4 h; measurement = tissue uptake; result = 0.46 ± 0.23 %ID/g
SMILES = CN(C)c1ccc(/N=N/c2ccccc2)cc1; assay = UV-vis pH titration; test system = methanol/water 1:3 v/v; measurement = pKa; result = 3.2
SMILES = CC[C@H](C)[C@H](NC(=O)[C@H](CCC(=O)O)NC(=O)[C@H](CCC(=O)O)NC(=O)[C@H](Cc1ccccc1)NC(=O)[C@H](CC(=O)O)NC(=O)CNC(=O)[C@H](CC(N)=O)NC(=O)CNC(=O)CNC(=O)CNC(=O)CNC(=O)[C@@H]1CCCN1C(=O)[C@H](CCCNC(=N)N)NC(=O)[C@@H]1CCCN1C(=O)[C@H](N)Cc1ccccc1)C(=O)N1CCC[C@H]1C(=O)N[C@@H](CCC(=O)O)C(=O)N[C@@H](CCC(=O)O)C(=O)N[C@@H](Cc1ccc(O)cc1)C(=O)N[C@@H](CC(C)C)C(=O)O; assay = LC-MS/MS; test system = human plasma; setting = 75 days, -80 °C, stability, nominal 3.0 ng/mL; measurement = concentration; result = 0.00297 ± 0.0001 µg/mL
SMILES = CC(=O)[O-].F[P-](F)(F)(F)(F)F.[Co+2].c1ccc(CN2CCCN3CCN(CCCN(Cc4ccccc4)CC3)CC2)cc1; assay = cyclic voltammetry; test system = acetonitrile; scale = baseline: SHE; measurement = irreversible oxidation potential; result = 1.23 V
SMILES = F[P-](F)(F)(F)(F)F.F[P-](F)(F)(F)(F)F.[Ru+2].c1ccc(-c2ccccn2)nc1.c1ccc(-c2ccccn2)nc1.c1csc(-c2ccc(-c3ccc(-c4cc5cccnc5c5ncccc45)s3)s2)c1; assay = transient absorption; test system = degassed acetonitrile; measurement = triplet lifetime; result = 27 µs
SMILES = C[C@@H](O)[C@H](NC(=O)[C@H](CCCCN)NC(=O)COCCN)C(=O)N[C@@H](CCCNC(=N)N)C(=O)NC(C)(C)C(=O)N[C@@H](CCCNC(=N)N)C(=O)NC(C)(C)C(=O)N[C@H](C(=O)N[C@@H](CO)C(=O)N[C@@H](Cc1c[nH]cn1)C(=O)N[C@@H](Cc1ccc(O)cc1)C(=O)NCC(=O)O)[C@@H](C)O; test system = C57BL/6 mouse, blood; setting = intravenous, 50 mg/kg, 10 h; scale = baseline: leukocytes; measurement = lymphocytes; result = 20 to 40%
SMILES = COC(=O)C[C@H](NC(=O)[C@H](C)NC(=O)[C@@H](NC(=O)[C@H](CC(=O)OC)NC(=O)[C@@H](NC(=O)c1ccc2ccccc2n1)C(C)C)C(C)C)C(=O)COc1c(F)cccc1F; test system = adult rat, brain; setting = intraperitoneal, dose not given; measurement = detection time; result = 0.25 h
SMILES = CC[C@@H]1C[C@]1(NC(=O)[C@@H]1C[C@@]2(CN1C(=O)[C@@H](NC(=O)[C@@H](NC(=O)[C@@H]1CCCCN1C(C)C)C1CCCCC1)C(C)(C)C)C(C)(C)C21CCC1)C(=O)NS(=O)(=O)N1CCCC1; test system = healthy human; setting = oral, 1000 mg single dose; measurement = subjects with nausea; result = 50%
SMILES = CC(=CCC(O)C(C)=Cc1csc(C)n1)CC=CC(C)C(O)C(C)C(=O)C(C)(C)C(O)CC(=O)O (centres unmarked); test system = human, plasma; setting = intravenous infusion, 27 mg/m2 KOS-1584, 3 h infusion, cycle 1; scale = baseline: metabolite over KOS-1584; measurement = AUC ratio; result = 10.7 ± 2.87%
SMILES = COc1ccc(F)cc1S(=O)(=O)Nc1cnc2c(c1)C(=O)NCCO2; test system = C57BL/6J mice, plasma; setting = oral, 0.3 mg/kg; measurement = AUC(0-inf); result = 0.123 ± 0.027 µg·h/mL
SMILES = CSCC[C@H](NC(=O)CNC(=O)[C@H](CC(=O)O)NC(=O)[C@@H](NC(=O)[C@@H](NC(=O)[C@@H](NC(=O)CNC(=O)[C@H](CCC(N)=O)NC(=O)[C@H](CCSC)NC(=O)[C@H](CC(=O)O)NC(=O)[C@H](C)NC(=O)[C@H](C)NC(=O)[C@@H](NC(=O)[C@H](CO)NC(=O)[C@@H](N)CC(C)C)[C@@H](C)O)C(C)C)C(C)C)[C@@H](C)O)C(=O)N[C@@H](C)C(=O)N[C@@H](CO)C(=O)NCC(=O)N[C@@H](CC(C)C)C(=O)N[C@@H](CC(=O)O)C(=O)N[C@@H](CCCCN)C(=O)N[C@@H](CC(=O)O)C(=O)N[C@@H](Cc1ccc(O)cc1)C(=O)N[C@@H](CC(C)C)C(=O)N[C@@H](CCCCN)C(=O)N1CCC[C@H]1C(=O)N[C@@H](CC(=O)O)C(=O)N[C@@H](CC(=O)O)C(=O)O; test system = human, serum; setting = intravenous, 1.66 mg/kg, patients, infusion; measurement = AUC(0-t); result = 1.32 µg·h/mL
SMILES = CN(C)c1ccc(C(=O)NCCCCN2CCN(c3ccccc3O[11CH3])CC2)cc1; test system = Sprague Dawley rat, male, brain; setting = intravenous, 30 min, added: cyclosporin A pretreatment; scale = baseline: untreated control; measurement = brain uptake increase; result = 8.82 fold and 8.8 fold
SMILES = NCCCC[C@H](NC(=O)[C@H](CCCCN)NC(=O)[C@H](CCCCN)NC(=O)c1cc(NC(=O)[C@H](CCCCN)NC(=O)[C@H](CCCCN)NC(=O)[C@@H](N)CCCCN)cc(NC(=O)[C@H](CCCCN)NC(=O)[C@H](CCCCN)NC(=O)[C@@H](N)CCCCN)c1)C(=O)O; assay = UHPLC; test system = human plasma; setting = 500 µM, 37 °C; measurement = serum stability time; result = < 4 min
SMILES = CC[C@H](C)[C@@H]1NC(=O)[C@H](CCC(=O)O)NC(=O)[C@H](C)NC(=O)[C@H](CC(C)C)NC(=O)[C@H](CC(C)C)NC(=O)C2(CCCC=CCCCCCC[C@@](C)(C(=O)N[C@@H](CC(N)=O)C(=O)N[C@@H](CC(C)C)C(=O)N[C@@H](CO)C(=O)O)NC(=O)[C@H](CCCCN)NC1=O)CCCC=CCCC[C@](C)(NC(=O)[C@H](CCCNC(=N)N)NC(=O)[C@H](CC(N)=O)NC(=O)[C@H](CCC(=O)O)NC(=O)[C@@H]1CCCN1C(=O)[C@H](CC(=O)O)NC(=O)c1ccc3c(c1)C(=O)OC31c3ccc(O)cc3Oc3cc(O)ccc31)C(=O)N[C@@H](C)C(=O)N[C@@H](CCCCN)C(=O)N[C@@H](CCCCN)C(=O)N2 (some centres unmarked); measurement = solubility limit; result = 4 µM (≈ 11 µg/mL)
SMILES = COc1cc(NC(=O)C(=O)c2c(C)n(Cc3ccc(Cl)cc3)c3ccc(C)cc23)ccn1; test system = cynomolgus monkey, male, plasma; setting = intravenous, 1 mg/kg; measurement = AUC(0-last); result = 1.57 µg·h/mL
SMILES = CC[C@H](C)C(=O)N1CCC(NC(=O)Nc2ccc(OC(F)(F)F)c(F)c2)CC1; test system = healthy volunteers; setting = oral, 24 mg single dose, 14 (unit not given); measurement = subjects with severe TEAE; result = 0%
SMILES = OC1CCN(c2ncc(-c3cc4ccc([18F])cc4[nH]3)cn2)CC1; assay = dynamic PET; test system = Sprague-Dawley rats, both sexes, whole brain; setting = intravenous, dose not given, 120 min; measurement = brain radioactivity; result = 0.4 SUV
SMILES = CC(C)C[C@H](NC(=O)[C@H](CCCCN)NC(=O)[C@H](CCC(=O)O)NC(=O)[C@H](C)NC(=O)[C@@H](NC(=O)[C@H](CCCCN)NC(=O)[C@H](CC(=O)O)NC(=O)[C@H](Cc1ccc(O)cc1)NC(=O)[C@H](Cc1ccccc1)NC(=O)[C@H](C)NC(=O)[C@H](CCCCN)NC(=O)[C@H](CC(C)C)NC(=O)[C@H](Cc1c[nH]c2ccccc12)NC(=O)[C@@H](N)CC(=O)O)C(C)C)C(=O)N[C@@H](CCCCN)C(=O)N[C@@H](CCC(=O)O)C(=O)N[C@@H](C)C(=O)N[C@@H](Cc1ccccc1)C(=O)N1CCC[C@H]1C(=O)N[C@@H](CC(=O)O)C(=O)N[C@@H](Cc1c[nH]c2ccccc12)C(=O)N[C@@H](C)C(=O)N[C@@H](CCCCN)C(=O)N[C@@H](C)C(=O)N[C@@H](C)C(=O)N[C@@H](Cc1ccc(O)cc1)C(=O)N[C@@H](CC(=O)O)C(=O)N[C@@H](CCCCN)C(=O)N[C@@H](C)C(=O)N[C@@H](C)C(=O)N[C@@H](CCC(=O)O)C(=O)N[C@@H](CCCCN)C(=O)N[C@@H](C)C(=O)N[C@@H](CCCCN)C(=O)N[C@@H](CCC(=O)O)C(=O)N[C@@H](C)C(=O)N[C@@H](C)C(=O)O; test system = cynomolgus monkey female, plasma; setting = intravenous infusion, 8 mg/kg every other day, day 27; measurement = Cmax; result = 159 µg/mL
SMILES = CC[C@H](C)[C@H](NC(=O)[C@H](CCCCN)NC(=O)CNC(=O)[C@H](CC(C)C)NC(=O)[C@@H](NC(=O)[C@H](C)NC(=O)[C@H](CCCCN)NC(=O)CNC(=O)[C@H](C)NC(=O)CNC(=O)[C@H](CCCCN)NC(=O)[C@H](CCSC)NC(=O)[C@H](CCCCN)NC(=O)[C@@H](NC(=O)[C@H](Cc1c[nH]c2ccccc12)NC(=O)[C@H](CC(C)C)NC(=O)[C@H](CCCCN)NC(=O)[C@H](CCCCN)NC(=O)[C@H](CC(C)C)NC(=O)[C@@H](N)CC(C)C)[C@@H](C)O)C(C)C)C(=O)N[C@@H](CCCCN)C(=O)NCC(=O)N[C@@H](CC(C)C)C(=O)N[C@@H](CC(C)C)C(=O)O; assay = acrylamide quenching; test system = DOPC:DOPG 3:1 vesicles; setting = 2 µM, 250 µM total lipid, added: acrylamide; measurement = Stern-Volmer constant; result = 1.07 ± 0.07 M⁻¹
